Assay results gathered from unrelated publications.
Numbered parts are unrelated; each lists some results of a single study. Substitutions count along the parent as printed.

Sample 1
Target: Centromere-binding protein 1, full length, His-tagged (CBF1, Saccharomyces cerevisiae, UniProt P17106, residues 1-351)
UniProt P17106, sequence (whole entry, looked up): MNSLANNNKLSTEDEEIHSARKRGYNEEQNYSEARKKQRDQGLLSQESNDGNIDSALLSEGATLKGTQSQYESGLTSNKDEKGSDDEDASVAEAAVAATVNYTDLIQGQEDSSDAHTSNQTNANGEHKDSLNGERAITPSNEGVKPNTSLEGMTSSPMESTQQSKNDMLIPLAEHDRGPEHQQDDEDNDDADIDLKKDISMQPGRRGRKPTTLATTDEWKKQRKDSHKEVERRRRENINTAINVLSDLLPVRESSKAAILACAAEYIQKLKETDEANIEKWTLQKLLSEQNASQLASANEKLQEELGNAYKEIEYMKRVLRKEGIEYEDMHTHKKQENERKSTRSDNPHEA
Method: competition protein-binding microarray
Form: double-stranded DNA, one strand shown
Medium: in vitro
Concentration: 2 µM
Setting: whole 60-bp probe, lowest competitor level
With: Pho4 competitor, 0.05 µM
Reading: higher = stronger binding
Shared flanks, not repeated: … GTCTTGATTCGCTTGACGCTGCTG
Sequence	fluorescence intensity [a.u.]
GGCCCAATGGAGCGTCACACTTTTAAACTTTCTAAA	89.8
ACCATGGTGCGAAGTTGCATGACAACCCGGACGAAT	65.3
ATATACTCTTTGGTGCACATGCAGGGATGGTTCCGG	145
CTTCTGTAAATTTGTCACAGAACTTGACGCGCCCCG	86
TTAGCTCTGCTGCATTTGCTGTTCGTTTAGTAAAAA	65.7
CCGGTGTTGCCCCATTCCGTGGGTATATCAGAGAGC	66
GTCGCTGCGCGCGATCATGCGTCTACGCGCTTCTGT	60.1
GATTCACTTGATATTCACGTGCAAAAACCATTAGTA	1320

Sample 2
Target: RING finger protein unkempt homolog, zinc fingers 1-6, GST-SBP tag (UNK, Homo sapiens, UniProt Q9C0B0, residues 30-357)
UniProt Q9C0B0, sequence (30-357, looked up): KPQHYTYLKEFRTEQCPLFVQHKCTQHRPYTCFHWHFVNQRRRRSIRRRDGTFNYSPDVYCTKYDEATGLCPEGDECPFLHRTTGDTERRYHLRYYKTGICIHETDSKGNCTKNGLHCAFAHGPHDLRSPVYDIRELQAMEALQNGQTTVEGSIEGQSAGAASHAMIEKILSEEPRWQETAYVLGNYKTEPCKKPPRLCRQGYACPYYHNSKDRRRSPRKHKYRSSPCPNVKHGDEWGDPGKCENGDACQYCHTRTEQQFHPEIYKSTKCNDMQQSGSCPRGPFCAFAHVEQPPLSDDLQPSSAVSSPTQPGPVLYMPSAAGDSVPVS
Method: RNA Bind-n-Seq
Form: RNA
Medium: in vitro
Concentration: not given
Setting: RNA with constant flanks, ends assumed
Reference: input RNA pool
Reading: higher = stronger binding
Shared flanks, not repeated: GGGAGUUCUACAGUCCGACGAUC … CAACAGAGGAUUGAGCAUCA
Sequence	bound/input enrichment [ratio]
UGUGAAAGAAAGGUUUUGCAUUCUGUCUACACAUUCGGCAGGAAUGAGUCCAGUUCCCUGUUCCGAUUCUUUGAGUGUAAUUUAUUGUGAAUGGCAGUUCAAAAUUCAGUUGAUCGGUCU	0.133
UUAUGGGGGAAGGGGGGGGUUCUUUAAAAUUUCUGUGGUUUGUGGCUUUUUCUUCCAUACAUCCGUUCCCACCAUCGCAUGCCCAGGGACCACUGCCUGGCAUUAUCGCAUGCUGGGAUC	0.491
GUUACAGGCCCUGGUGGAGUUCCAGUUCAAGGCAGUAAAUACGCAGCAGACCGUAACCAUUACCGACGCUAUCCACGUCGUAGGGGUCCUCCACGCAAUUACCAGCAAAAUUACCAGAAU	0.145
AACCACAACGACUGGAUUAAGCAGUAUGAAACACUAGCCGAAAUGGUAGUUCCAAGGUCCCGCAAUGUUCUUUCAGAGGACCAAGACAGUUACCUGUGUAAUGUCACCUUGUUUAGGAAG	0.186
AAUGGUGAAUCAGGAAAGGAUGUGGAUGAUGACAAAGAUGCAAAUAAGUCUGAGAUCAGCUCCGUGUUUGAAAUUGCUCUGAAGCGAAAUAUGCCUGUCAGUUUUGAGGUUAUUAAAGAA	0.143
GCUUCUGGAUCUAGAUCCAGGAAGUCACAUUCUAAGCAAAUGCCUCGGCCUGUUAAAGGGUUCCGUUGCUUCAGUUCAUGAAUGAUCCUAUCCCAGCCUACUCCUCUGUGGCCUUGACGC	0.169
UUUUUCCUGCCCAAAGGAGCCUACAUUUAUAAUACACUAAUGGAAUUUAUCAGGAGUGAAUACCGGAAAAGAGGGUUCCAGGAGGUCGUCACUCCCAACAUCUUCAAUAGCCGGCUCUGG	0.414
GUACGAGGCAUAUUAAUGAAUGAGGAGGUCCUAGGAAACCAGAUUCACUUGCAUGUGACAACCCGGGAAUAUGGUGCCCGGGUCUCCAACCUACACAUGUACUCAGCUGUUUGUGCUGAC	0.276

Sample 3
Target: Transcription factor SOX-2, HMG box (Sox2, Mus musculus, UniProt P48432, residues 41-119)
UniProt P48432, sequence (41-119, looked up): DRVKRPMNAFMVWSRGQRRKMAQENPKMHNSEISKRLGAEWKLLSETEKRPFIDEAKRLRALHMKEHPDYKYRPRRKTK
Method: Spec-seq
Form: double-stranded DNA, one strand shown
Medium: in vitro
Concentration: not given
Setting: whole probe, mean of replicates
Reference: not given
Reading: lower = stronger binding
Shared flanks, not repeated: GAGTCGTCTCGTCAGCAC … CCGTAGAGCACTCAGGTC
Sequence	relative binding energy
GATGGTT	0.649 ln ratio
CATTTAA	-0.889 ln ratio
GTTTGTT	-1.17 ln ratio
CATGGGT	0.145 ln ratio
AGTGGTT	-0.0182 ln ratio
CCTAGTT	0.502 ln ratio
CATCGGT	0.678 ln ratio
CATATGA	0.00929 ln ratio

Other studies, line by line
Parent: viral docking peptide; TSVRRALFTGGSD; partner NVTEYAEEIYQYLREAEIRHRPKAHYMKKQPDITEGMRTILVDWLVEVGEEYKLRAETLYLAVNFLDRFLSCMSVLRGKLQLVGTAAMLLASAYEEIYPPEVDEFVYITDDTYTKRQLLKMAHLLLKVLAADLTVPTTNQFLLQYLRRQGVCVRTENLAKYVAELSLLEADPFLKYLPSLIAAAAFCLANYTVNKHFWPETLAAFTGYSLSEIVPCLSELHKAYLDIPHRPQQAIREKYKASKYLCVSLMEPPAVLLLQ
Change	target	assay	system	setting	how to read	endpoint	value
TSVPRALFTGGSD [R4P]	CCNA1, cyclin fold, Cln2 fusion (human)	yeast growth competition, sequencing	yeast	strong parent motif	reference: not given, higher = stronger binding	normalised enrichment score	-0.147

Repeated from above (sample 3):
Sequence	relative binding energy
GTTTGTT	-1.17 ln ratio
CATGGGT	0.145 ln ratio
